Published values pooled from the literature.
Several values in a cell are separate wells, animals, samples, runs or records. ± marks the error that the study gave. ≈ marks a conversion by molar mass, not a printed value.
Sequence of UniProt Q96PY6 (whole entry, looked up): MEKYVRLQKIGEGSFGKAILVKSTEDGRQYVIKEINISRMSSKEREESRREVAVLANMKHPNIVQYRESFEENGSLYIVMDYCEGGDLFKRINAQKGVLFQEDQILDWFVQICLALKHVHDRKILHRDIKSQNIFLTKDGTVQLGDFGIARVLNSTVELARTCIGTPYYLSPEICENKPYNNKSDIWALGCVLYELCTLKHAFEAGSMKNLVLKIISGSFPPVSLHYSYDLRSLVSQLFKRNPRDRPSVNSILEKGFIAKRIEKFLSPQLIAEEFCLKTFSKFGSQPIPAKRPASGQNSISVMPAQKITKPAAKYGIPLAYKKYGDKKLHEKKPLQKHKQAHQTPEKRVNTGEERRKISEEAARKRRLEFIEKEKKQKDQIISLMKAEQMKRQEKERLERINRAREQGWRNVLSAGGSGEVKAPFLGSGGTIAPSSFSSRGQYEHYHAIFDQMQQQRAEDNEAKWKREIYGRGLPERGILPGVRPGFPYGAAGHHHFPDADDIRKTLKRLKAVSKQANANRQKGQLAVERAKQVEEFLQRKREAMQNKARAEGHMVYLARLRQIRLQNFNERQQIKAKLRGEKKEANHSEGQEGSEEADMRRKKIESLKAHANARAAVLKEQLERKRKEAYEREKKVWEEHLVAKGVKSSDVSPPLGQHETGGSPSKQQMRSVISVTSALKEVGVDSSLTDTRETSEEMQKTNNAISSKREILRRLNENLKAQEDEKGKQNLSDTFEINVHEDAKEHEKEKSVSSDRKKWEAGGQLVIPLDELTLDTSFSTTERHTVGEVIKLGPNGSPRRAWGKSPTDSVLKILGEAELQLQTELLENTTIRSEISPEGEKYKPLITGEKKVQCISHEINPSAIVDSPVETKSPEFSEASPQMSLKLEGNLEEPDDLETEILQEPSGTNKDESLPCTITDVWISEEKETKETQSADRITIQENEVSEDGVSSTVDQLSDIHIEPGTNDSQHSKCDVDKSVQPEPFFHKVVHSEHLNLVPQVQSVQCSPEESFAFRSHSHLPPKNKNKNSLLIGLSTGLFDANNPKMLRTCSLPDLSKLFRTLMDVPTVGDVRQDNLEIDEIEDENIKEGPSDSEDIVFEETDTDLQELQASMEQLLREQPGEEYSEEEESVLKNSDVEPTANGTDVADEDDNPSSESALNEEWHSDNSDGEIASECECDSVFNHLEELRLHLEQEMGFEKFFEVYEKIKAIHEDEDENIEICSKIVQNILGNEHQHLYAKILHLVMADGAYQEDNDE

SMILES	tested on	test	test system	conditions	scale	measurement	value
CN(C(=O)c1ccn2ncc(-c3ccc(C(N)=O)cc3)c2c1)c1ccc(C#N)cn1	Cryptosporidium parvum	–	UGA1 Nluc, IFN-gamma knockout C57BL/6 mice, faeces	oral, 10 mg/kg daily, 240 h post infection, treatment days 3-9	higher means more parasites	faecal Nluc luminescence	8 a.u. and 67 a.u. and 35 a.u. and 13 a.u. and 17 a.u.
CCCSC(SCCC)c1ccc(OCCNS(=O)(=O)c2ccc(F)c(Cl)c2)c(OC)c1	Tobacco mosaic virus	protective activity	plant in vivo	–	–	EC50	563.7 ± 1.6 µg/mL
CCOC(=O)C1(Cc2ccccc2F)Oc2cc(F)ccc2N(Cc2ccccc2F)C1=O (stereo not drawn)	Eclipta prostrata	fresh weight, greenhouse postemergence	–	postemergence, 150 g ai/ha, 21 days	–	inhibition	48.8 ± 2.1%
[O-][N+]1=C(Cc2ccccc2)C2=NCCCN2c2ccccc21	Parabacteroides distasonis and Bacteroides spp.	bacterial growth	–	–	–	MIC90	4 µg/mL (≈ 13.7 µM)
O=C1NC2(CC2)COc2ncc(F)cc2[C@H]2COCCN2c2ccn3ncc1c3n2	–	–	Sprague-Dawley rat, male, serum	oral, 10 mg/kg/day, end of treatment, 4-week subacute toxicity	–	serum urea	6.42 ± 6.15 mmol/L
CC(O)CN(CC(C)O)CC(C)O.O=C(O)C(Cl)Cl (stereo not drawn)	Eclipta prostrata	–	–	15 mg/mL, 21 days, pre-emergence, greenhouse	–	herbicidal inhibition	0%
CC[C@H](C)CCCCC(=O)N[C@@H](CCN)C(=O)N[C@H](C(=O)N[C@@H](CCN)C(=O)N[C@H]1CCNC(=O)[C@H]([C@@H](C)O)NC(=O)[C@H](CCN)NC(=O)[C@H](CCN)NC(=O)[C@H](CC(C)C)NC(=O)[C@@H](CC(C)C)NC(=O)[C@H](CCN)NC1=O)[C@@H](C)O	Escherichia coli	daily serial passaging	ATCC 8739	highest sub-MIC, 12 days	relative to: initial MIC	MIC fold change	2.68
CCOC(=O)C1(C)Oc2cc(F)ccc2N(C)C1=O (stereo not drawn)	Echinochloa crus-galli	fresh weight, greenhouse postemergence	–	postemergence, 150 g ai/ha, 21 days	–	inhibition	55.6 ± 2.06%
CN[C@H](CC(C)C)C(=O)N[C@H]1C(=O)N[C@@H](CC(N)=O)C(=O)N[C@H]2C(=N)N[C@H]3C(=O)N[C@H](C(=O)N[C@H](C(=O)O)c4cc(O)cc(O)c4-c4cc3ccc4O)[C@H](O)c3ccc(c(Cl)c3)Oc3cc2cc(c3O[C@@H]2O[C@H](CO)[C@@H](O)[C@H](O)[C@H]2O[C@H]2C[C@](C)(N)[C@H](O)[C@H](C)O2)Oc2ccc(cc2Cl)[C@H]1O	Enterococcus faecium	–	ATCC BAA-2317 VanA	10 µg/mL	relative to: no antibiotic	accumulation increase	4 to 6 fold
CC[C@H](C)[C@H](NC(=O)[C@H](C)NC(=O)CNC(=O)[C@H](C)NC(=O)[C@H](CCCCN)NC(=O)[C@H](CO)NC(=O)[C@H](C)NC(=O)[C@H](CCSC)NC(=O)CN)C(=O)N[C@@H](C)C(=O)NCC(=O)N[C@@H](CCCCN)C(=O)N[C@H](C(=O)N[C@@H](C)C(=O)N[C@@H](CCCCN)C(=O)N[C@H](C(=O)N[C@@H](C)C(=O)N[C@@H](CC(C)C)C(=O)N[C@@H](CCCCN)C(=O)N[C@@H](C)C(=O)N[C@@H](CC(C)C)C(N)=O)C(C)C)[C@@H](C)CC	Escherichia coli	–	0370 nalidixic acid resistant	Loewe additivity, together with: nalidixic acid	–	combination index	1.09
CCCCCCCCCCCCCC(=O)N[C@H]1C(=O)N[C@@H](CN)C(=O)N[C@@H](CO)C(=O)N[C@@H](Cc2ccc(O)cc2)C(=O)O[C@H]1C	Staphylococcus aureus	–	SH1000	together with: N-acetylsphingosine, molar ratio 0.5	–	MIC	2 µg/mL
CCCSC(SCCC)c1ccc(OCCNS(=O)(=O)c2ccc(Br)cc2)c(OC)c1	tobacco mosaic virus	curative activity	in vivo plant	–	–	EC50	> 2500 µg/mL
CC(C)(C)C(=O)OCOP(=O)(OCOC(=O)C(C)(C)C)C1CCCN(O)C1=O (stereo not drawn)	KM12	–	–	–	–	log TGI	-4.88 log M
COC(=O)C1=CO[C@@H](C)[C@@H]2Cn3ccc4c5ccccc5nc-4c3C[C@H]12	Plasmodium falciparum	growth, [3H]-hypoxanthine uptake	FCR3	96 h	–	IC50	228 ± 71 nM
O[C@]12C=C(c3nccc4c3[nH]c3ccccc34)[C@@H]3CCN(CCCC/C=C\CC1)C[C@@]31C[C@@H]3/C=C\CCCCN3[C@H]12	Mycobacterium intracellulare	microbial growth, resazurin	ATCC23068	–	–	IC50	0.36 µg/mL
CCOC(=O)C1(Cc2ccc([N+](=O)[O-])cc2)Oc2cc(F)ccc2N(Cc2ccc([N+](=O)[O-])cc2)C1=O (stereo not drawn)	Eclipta prostrata	fresh weight, greenhouse postemergence	–	postemergence, 150 g ai/ha, 21 days	–	inhibition	64 ± 2.26%
C[N+]1=C2C(c3ccc(Cl)cc3)=[N+]([O-])c3ccccc3N2CCC1	Prevotella spp.	bacterial growth	–	–	–	MIC90	8 µg/mL
COc1cc(C(SC(C)C)SC(C)C)ccc1OCCNS(=O)(=O)c1cccc(C(F)(F)F)c1	Tobacco mosaic virus	protective activity	plant in vivo	–	–	EC50	578.7 ± 1.7 µg/mL
CCc1nn(C)c2nc(-c3ccc(C(=O)O)cc3)nc(NCc3ccccc3)c12	Cryptosporidium parvum	–	HCT-8	9 x EC90, 72 h	relative to: DMSO control	parasite number	27% and 23.1% and 16.8% and 26.8%
Cc1cc(C(=O)Nc2nc3cccc(C)c3n2[C@H]2CCCCN(C(=O)/C=C/CN(C)C)C2)ccn1	Trypanosoma brucei	–	STIB795, mouse acute HAT model	oral, 50 mg/kg once daily for 4 days, day 31	relative to: mice	survival	100%
C=CCN1C(=O)C(CC=C)(C(=O)OCC)Oc2cc(F)ccc21 (stereo not drawn)	Eclipta prostrata	–	greenhouse	postemergence, 150 g ai/ha, 21 days	–	fresh weight inhibition	53.5 ± 2.14%

SMILES	tested on	test	test system	conditions	scale	measurement	value
CCCSC(SCCC)c1ccc(OCCNS(=O)(=O)c2ccc(Br)cc2)c(Cl)c1	Tobacco mosaic virus	curative activity	plant in vivo	–	–	EC50	764.9 ± 4.1 µg/mL
C[N+]1=C2C(c3ccc([N+](=O)[O-])cc3)=[N+]([O-])c3ccccc3N2CCC1	Prevotella spp.	bacterial growth	–	–	–	MIC90	1 µg/mL
COc1ccccc1-c1n[nH]c2nc(N[C@H]3CC[C@H](NS(=O)(=O)CC(C)C)CC3)ncc12	–	bead binding, competition bead pull-down, measured: LINJ.36.0780	Leishmania donovani extract	10 µM	relative to: vehicle	relative abundance	0.75
COc1cc(C(SC(C)C)SC(C)C)ccc1OCCNS(=O)(=O)c1ccc(Br)cc1	Tobacco mosaic virus	curative activity	plant in vivo	–	–	EC50	183 ± 3.2 µg/mL
CNCCO.O=C(O)C(Cl)Cl	Eleusine indica	–	–	15 mg/mL, 21 days, post-emergence, greenhouse	–	herbicidal inhibition	5%
CCOC(=O)C1(Cc2ccc(OC)cc2)Oc2cc(F)ccc2N(Cc2ccc(OC)cc2)C1=O (stereo not drawn)	Echinochloa crus-galli	fresh weight, greenhouse postemergence	–	postemergence, 150 g ai/ha, 21 days	–	inhibition	47.7 ± 1.66%
C[C@H](NC(=O)[C@@H](O)c1cc(F)cc(F)c1)C(=O)N[C@@H]1C(=O)N(C)c2ccccc2-c2ccccc21	dengue virus type 2	viral replication, Renilla luciferase reporter virus	Huh-7.5.1	48 h	–	EC50	3 nM
COc1ccc(C2=[N+]([O-])c3ccccc3N3CC(C)(C)CN=C23)cc1	Prevotella spp.	bacterial growth	–	–	–	MIC90	0.5 µg/mL (≈ 1.49 µM)
COc1ccccc1-c1n[nH]c2nc(NC3CCN(C(=O)Cc4ccc(F)cc4F)CC3)ncc12	–	bead binding, competition bead pull-down, measured: LINJ.24.1950	Leishmania donovani extract	10 µM	relative to: vehicle	relative abundance	0.74
C#CCN1C(=O)C(CC#C)(C(=O)OCC)Oc2ccccc21 (stereo not drawn)	Echinochloa crus-galli	–	greenhouse	postemergence, 150 g ai/ha, 21 days	–	fresh weight inhibition	> 50%
O=C(NC1CC1)c1cc2c(s1)-c1ccccc1N(C(=O)c1ccc(NC(=O)c3cccnc3N3CCC4(CC3)COC4)cc1)CC2	human respiratory syncytial virus	viral replication	–	–	–	IC50	200 nM
Cc1ccc(S(=O)(=O)NCCOc2ccc(C(SC(C)C)SC(C)C)cc2Cl)cc1	tobacco mosaic virus	curative activity	in vivo plant	–	–	EC50	> 2500 µg/mL
C[N+]1=C2C(c3ccccc3)=[N+]([O-])c3ccccc3N2CCC1	Parabacteroides distasonis and Bacteroides spp.	bacterial growth	–	–	–	MIC50	2 µg/mL
CCOC(=O)C1(Cc2c(F)cccc2F)Oc2cc(F)ccc2N(Cc2c(F)cccc2F)C1=O (stereo not drawn)	Eclipta prostrata	fresh weight, greenhouse postemergence	–	postemergence, 150 g ai/ha, 21 days	–	inhibition	61 ± 2.29%
CN(C)[C@H]1C[C@@]23CC[C@@]4(O2)C(=CC[C@]2(C)[C@@H](c5ccc6ccncc6c5)CC[C@H]24)C=C3[C@@H](O)[C@@H]1O	NEK1 (Homo sapiens, UniProt Q96PY6)	ATP probe labelling, inhibitor, KiNativ profiling	–	0.1 µM	–	inhibition	8.7%
Cc1ccc(N2CC3CC(C2)N3C)cc1C(=O)NC1(c2ccc3c4c(cccc24)C(=O)N3C)CC1	Human coronavirus NL63	viral replication	–	100 pM	–	inhibition	0%
CCCSC(SCCC)c1ccc(OCCNS(=O)(=O)c2cccc(C(F)(F)F)c2)c(OC)c1	Tobacco mosaic virus	inactivation activity	plant in vivo	–	–	EC50	495 ± 2.3 µg/mL
FC(F)(F)c1cccc(CNc2nc(NC3CCN(Cc4ccccc4)CC3)c3nc[nH]c3n2)c1	Cryptococcus neoformans	RNA-seq, measured: CNAG_05329	–	48 µg/mL, 3 h	relative to: untreated	mRNA fold change	1.16
[O-][N+]1=C(c2ccccc2)C2=NCCN2c2ccccc21	Parabacteroides distasonis and Bacteroides spp.	bacterial growth	–	–	–	MIC50	≤ 0.06 µg/mL
CCCSC(SCCC)c1ccc(OCCNS(=O)(=O)c2ccc(F)cc2)c(OC)c1	Tobacco mosaic virus	inactivation activity	plant in vivo	–	–	EC50	79 ± 1.3 µg/mL
O=c1n(CCNCCOS(=O)(=O)c2ccccc2)c(=O)n(S(=O)(=O)c2ccccc2)c(=O)n1S(=O)(=O)c1ccccc1	Bacillus cereus	broth microdilution	–	–	–	MLC	4 ± 1 µg/mL

Excerpt of the above:
SMILES	tested on	test	test system	conditions	scale	measurement	value
CCOC(=O)C1(C)Oc2cc(F)ccc2N(C)C1=O (stereo not drawn)	Echinochloa crus-galli	fresh weight, greenhouse postemergence	–	postemergence, 150 g ai/ha, 21 days	–	inhibition	55.6 ± 2.06%
CN[C@H](CC(C)C)C(=O)N[C@H]1C(=O)N[C@@H](CC(N)=O)C(=O)N[C@H]2C(=N)N[C@H]3C(=O)N[C@H](C(=O)N[C@H](C(=O)O)c4cc(O)cc(O)c4-c4cc3ccc4O)[C@H](O)c3ccc(c(Cl)c3)Oc3cc2cc(c3O[C@@H]2O[C@H](CO)[C@@H](O)[C@H](O)[C@H]2O[C@H]2C[C@](C)(N)[C@H](O)[C@H](C)O2)Oc2ccc(cc2Cl)[C@H]1O	Enterococcus faecium	–	ATCC BAA-2317 VanA	10 µg/mL	relative to: no antibiotic	accumulation increase	4 to 6 fold
CC[C@H](C)[C@H](NC(=O)[C@H](C)NC(=O)CNC(=O)[C@H](C)NC(=O)[C@H](CCCCN)NC(=O)[C@H](CO)NC(=O)[C@H](C)NC(=O)[C@H](CCSC)NC(=O)CN)C(=O)N[C@@H](C)C(=O)NCC(=O)N[C@@H](CCCCN)C(=O)N[C@H](C(=O)N[C@@H](C)C(=O)N[C@@H](CCCCN)C(=O)N[C@H](C(=O)N[C@@H](C)C(=O)N[C@@H](CC(C)C)C(=O)N[C@@H](CCCCN)C(=O)N[C@@H](C)C(=O)N[C@@H](CC(C)C)C(N)=O)C(C)C)[C@@H](C)CC	Escherichia coli	–	0370 nalidixic acid resistant	Loewe additivity, together with: nalidixic acid	–	combination index	1.09
CCCCCCCCCCCCCC(=O)N[C@H]1C(=O)N[C@@H](CN)C(=O)N[C@@H](CO)C(=O)N[C@@H](Cc2ccc(O)cc2)C(=O)O[C@H]1C	Staphylococcus aureus	–	SH1000	together with: N-acetylsphingosine, molar ratio 0.5	–	MIC	2 µg/mL
CCCSC(SCCC)c1ccc(OCCNS(=O)(=O)c2ccc(Br)cc2)c(OC)c1	tobacco mosaic virus	curative activity	in vivo plant	–	–	EC50	> 2500 µg/mL
CC(C)(C)C(=O)OCOP(=O)(OCOC(=O)C(C)(C)C)C1CCCN(O)C1=O (stereo not drawn)	KM12	–	–	–	–	log TGI	-4.88 log M
